# Published values of several laboratories.
# A part holds a random share of what one study measured. Values joined by “and” are separate records of one study, mostly repeats; a detail may differ.
# UniProt Q8TF76, sequence (whole entry, looked up): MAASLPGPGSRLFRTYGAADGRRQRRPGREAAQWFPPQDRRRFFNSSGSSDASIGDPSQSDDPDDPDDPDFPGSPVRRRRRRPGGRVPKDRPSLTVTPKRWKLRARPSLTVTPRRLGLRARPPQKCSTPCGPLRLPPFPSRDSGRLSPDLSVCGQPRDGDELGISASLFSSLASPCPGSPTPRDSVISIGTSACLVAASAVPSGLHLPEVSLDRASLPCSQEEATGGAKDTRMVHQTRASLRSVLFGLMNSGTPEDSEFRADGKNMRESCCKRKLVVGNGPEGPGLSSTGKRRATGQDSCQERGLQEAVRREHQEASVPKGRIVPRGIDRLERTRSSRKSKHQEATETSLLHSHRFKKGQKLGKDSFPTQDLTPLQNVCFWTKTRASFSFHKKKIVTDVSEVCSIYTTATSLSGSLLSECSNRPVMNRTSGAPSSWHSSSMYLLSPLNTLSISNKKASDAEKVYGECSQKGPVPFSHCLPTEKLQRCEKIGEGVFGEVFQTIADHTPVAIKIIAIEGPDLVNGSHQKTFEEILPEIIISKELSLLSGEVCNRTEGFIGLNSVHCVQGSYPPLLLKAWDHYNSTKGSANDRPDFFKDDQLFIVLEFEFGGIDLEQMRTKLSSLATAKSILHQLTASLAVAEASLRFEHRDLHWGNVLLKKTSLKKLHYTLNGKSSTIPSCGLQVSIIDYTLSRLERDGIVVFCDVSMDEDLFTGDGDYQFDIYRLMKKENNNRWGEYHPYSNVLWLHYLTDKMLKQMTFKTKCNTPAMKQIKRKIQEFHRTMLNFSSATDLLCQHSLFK
# UniProt O96017, sequence (whole entry, looked up): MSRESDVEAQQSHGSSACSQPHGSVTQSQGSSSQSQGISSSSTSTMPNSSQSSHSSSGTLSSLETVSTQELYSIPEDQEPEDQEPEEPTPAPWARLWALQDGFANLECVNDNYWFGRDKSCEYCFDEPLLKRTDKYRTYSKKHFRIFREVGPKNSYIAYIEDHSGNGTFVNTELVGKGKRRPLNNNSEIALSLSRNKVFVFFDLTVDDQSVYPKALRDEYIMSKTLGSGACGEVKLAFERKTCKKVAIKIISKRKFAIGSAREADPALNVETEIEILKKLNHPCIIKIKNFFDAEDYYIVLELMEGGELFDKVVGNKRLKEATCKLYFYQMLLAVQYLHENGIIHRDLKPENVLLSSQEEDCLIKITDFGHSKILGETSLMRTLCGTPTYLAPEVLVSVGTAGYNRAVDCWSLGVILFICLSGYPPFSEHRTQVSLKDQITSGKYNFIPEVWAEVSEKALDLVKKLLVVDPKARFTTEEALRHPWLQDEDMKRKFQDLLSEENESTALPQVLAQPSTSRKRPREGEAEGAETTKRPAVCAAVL
# UniProt P32298, sequence (whole entry, looked up): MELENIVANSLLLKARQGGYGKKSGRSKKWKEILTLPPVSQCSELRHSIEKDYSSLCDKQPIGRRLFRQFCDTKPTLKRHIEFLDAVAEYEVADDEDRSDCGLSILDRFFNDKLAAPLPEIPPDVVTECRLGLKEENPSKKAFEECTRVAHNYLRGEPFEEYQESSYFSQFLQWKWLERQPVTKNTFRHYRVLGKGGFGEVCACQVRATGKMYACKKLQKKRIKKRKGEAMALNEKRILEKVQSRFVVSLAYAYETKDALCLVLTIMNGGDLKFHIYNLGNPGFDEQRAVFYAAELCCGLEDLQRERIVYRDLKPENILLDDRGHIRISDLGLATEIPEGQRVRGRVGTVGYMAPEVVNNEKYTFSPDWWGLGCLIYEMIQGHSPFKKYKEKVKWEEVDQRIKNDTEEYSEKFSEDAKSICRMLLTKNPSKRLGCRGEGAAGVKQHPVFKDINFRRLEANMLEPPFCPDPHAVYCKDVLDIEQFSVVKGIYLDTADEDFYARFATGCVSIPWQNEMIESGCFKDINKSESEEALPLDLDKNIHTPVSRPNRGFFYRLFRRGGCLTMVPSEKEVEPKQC
# UniProt Q8WXR4, sequence (whole entry, looked up): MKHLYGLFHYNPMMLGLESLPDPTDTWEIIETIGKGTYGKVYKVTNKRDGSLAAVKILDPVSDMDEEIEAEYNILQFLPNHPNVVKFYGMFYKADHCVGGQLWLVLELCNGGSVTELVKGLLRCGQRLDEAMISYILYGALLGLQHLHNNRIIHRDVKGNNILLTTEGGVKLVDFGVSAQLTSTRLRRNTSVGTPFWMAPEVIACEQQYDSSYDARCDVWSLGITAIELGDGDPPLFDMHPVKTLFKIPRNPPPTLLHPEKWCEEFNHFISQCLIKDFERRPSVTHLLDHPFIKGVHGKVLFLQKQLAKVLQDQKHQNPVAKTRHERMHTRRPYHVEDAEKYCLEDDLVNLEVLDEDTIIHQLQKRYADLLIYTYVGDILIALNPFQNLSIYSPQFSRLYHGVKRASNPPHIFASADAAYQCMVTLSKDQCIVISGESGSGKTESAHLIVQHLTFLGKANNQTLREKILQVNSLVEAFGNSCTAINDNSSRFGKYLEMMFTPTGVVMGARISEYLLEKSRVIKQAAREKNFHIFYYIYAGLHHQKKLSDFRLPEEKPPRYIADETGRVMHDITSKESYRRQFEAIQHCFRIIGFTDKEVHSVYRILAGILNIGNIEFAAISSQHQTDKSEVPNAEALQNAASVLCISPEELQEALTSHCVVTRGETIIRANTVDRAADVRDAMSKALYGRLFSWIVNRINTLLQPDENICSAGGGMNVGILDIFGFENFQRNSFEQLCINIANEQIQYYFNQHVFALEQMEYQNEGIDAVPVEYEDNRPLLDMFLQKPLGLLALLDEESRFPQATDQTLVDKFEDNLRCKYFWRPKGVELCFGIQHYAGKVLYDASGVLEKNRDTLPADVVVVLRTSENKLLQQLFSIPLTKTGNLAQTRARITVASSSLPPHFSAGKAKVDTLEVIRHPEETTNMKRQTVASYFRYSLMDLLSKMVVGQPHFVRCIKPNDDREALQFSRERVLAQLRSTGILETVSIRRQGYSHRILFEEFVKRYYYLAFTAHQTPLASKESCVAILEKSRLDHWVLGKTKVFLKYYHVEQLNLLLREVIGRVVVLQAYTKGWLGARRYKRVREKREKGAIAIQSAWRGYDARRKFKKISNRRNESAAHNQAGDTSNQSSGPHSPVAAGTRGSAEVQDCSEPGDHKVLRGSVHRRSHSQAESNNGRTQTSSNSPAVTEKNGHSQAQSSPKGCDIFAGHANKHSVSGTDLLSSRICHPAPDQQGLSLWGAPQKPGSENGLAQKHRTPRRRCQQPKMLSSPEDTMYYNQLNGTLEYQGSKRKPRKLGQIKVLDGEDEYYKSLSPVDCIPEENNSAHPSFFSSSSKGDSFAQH
# UniProt Q56UN5, sequence (whole entry, looked up): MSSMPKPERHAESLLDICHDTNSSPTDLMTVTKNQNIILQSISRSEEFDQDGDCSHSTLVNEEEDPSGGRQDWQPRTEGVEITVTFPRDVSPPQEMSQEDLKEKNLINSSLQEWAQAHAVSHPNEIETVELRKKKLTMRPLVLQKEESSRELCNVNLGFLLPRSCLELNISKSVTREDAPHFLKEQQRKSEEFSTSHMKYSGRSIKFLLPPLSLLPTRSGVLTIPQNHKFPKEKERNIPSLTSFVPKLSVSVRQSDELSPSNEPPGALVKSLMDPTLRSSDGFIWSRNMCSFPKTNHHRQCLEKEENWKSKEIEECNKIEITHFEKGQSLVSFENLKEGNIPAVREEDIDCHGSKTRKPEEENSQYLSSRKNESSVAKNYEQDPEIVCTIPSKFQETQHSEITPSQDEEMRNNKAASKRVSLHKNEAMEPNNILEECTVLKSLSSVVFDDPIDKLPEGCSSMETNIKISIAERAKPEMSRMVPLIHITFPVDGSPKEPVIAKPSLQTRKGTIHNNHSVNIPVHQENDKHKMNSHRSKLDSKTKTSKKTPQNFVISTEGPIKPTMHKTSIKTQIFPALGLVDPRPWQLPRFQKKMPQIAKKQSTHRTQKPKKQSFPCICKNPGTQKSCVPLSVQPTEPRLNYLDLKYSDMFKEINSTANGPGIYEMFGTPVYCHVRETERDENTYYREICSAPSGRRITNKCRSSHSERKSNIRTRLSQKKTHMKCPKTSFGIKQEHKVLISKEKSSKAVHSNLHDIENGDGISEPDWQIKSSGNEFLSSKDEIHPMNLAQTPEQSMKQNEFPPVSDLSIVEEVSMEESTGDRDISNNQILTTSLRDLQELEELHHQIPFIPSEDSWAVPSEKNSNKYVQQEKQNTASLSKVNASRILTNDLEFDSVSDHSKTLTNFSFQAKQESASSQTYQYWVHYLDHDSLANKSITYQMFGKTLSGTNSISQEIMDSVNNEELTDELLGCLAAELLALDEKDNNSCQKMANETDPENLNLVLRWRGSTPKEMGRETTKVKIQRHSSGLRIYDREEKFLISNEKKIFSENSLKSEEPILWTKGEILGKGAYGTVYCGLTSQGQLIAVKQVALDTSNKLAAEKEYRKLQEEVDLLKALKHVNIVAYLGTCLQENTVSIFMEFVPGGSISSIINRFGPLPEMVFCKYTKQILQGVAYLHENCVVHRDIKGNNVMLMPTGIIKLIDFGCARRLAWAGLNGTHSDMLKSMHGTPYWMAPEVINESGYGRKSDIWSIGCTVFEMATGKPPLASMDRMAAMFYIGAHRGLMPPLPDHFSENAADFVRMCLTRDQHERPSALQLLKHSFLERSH
# UniProt P49336, sequence (whole entry, looked up): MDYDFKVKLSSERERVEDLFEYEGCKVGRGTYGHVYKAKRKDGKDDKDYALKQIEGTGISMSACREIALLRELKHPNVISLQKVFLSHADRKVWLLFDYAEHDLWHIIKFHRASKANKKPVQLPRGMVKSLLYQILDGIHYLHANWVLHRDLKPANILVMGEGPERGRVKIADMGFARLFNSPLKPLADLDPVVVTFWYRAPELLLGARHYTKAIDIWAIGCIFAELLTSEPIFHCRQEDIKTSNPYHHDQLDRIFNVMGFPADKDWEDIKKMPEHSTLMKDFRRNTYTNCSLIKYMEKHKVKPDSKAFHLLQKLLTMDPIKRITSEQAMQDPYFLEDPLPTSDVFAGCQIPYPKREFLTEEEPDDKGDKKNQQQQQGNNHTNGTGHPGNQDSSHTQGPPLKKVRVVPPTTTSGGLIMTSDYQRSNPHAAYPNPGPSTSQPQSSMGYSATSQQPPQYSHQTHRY

# Block 1
# Structure (SMILES): O=C(Nc1cnn(-c2csc(C(=O)NC3COC3)c2)c1)Nc1ccccc1Cl
# Read-out: enzyme activity
# Concentration: 5 µM
target,action,baseline,remaining activity
"TTBK1 (Homo sapiens, UniProt Q5TCY1)",inhibitor,,97.2%
"CHEK2 (Homo sapiens, UniProt O96017)",,untreated control,94.7%
"FLT1 (Homo sapiens, UniProt P17948)",,untreated control,96.8%
"JAK2 (Homo sapiens, UniProt O60674)",,untreated control,95.4%
"DYRK4 (Homo sapiens, UniProt Q9NR20)",,untreated control,91.6%

# Block 2
# Structure (SMILES): CC(C)C[C@@H]1NC(=O)[C@@H](N(C)C(=O)[C@H](CC2CCC2)NC(=O)[C@@H]2C[C@@H](F)CN2C(=O)C2(C(F)(F)F)CC(F)(F)C2)CCCCNC(=O)C2(CC2)NC(=O)[C@H](Cc2cc(Cl)ccc2Cl)N(C)C1=O
# Technique: PI flow cytometry
# Time: 24 h
cell line,concentration,S phase cells
A549,2000 nM,17.3% and 26.2%
NCI-H82,2000 nM,42.6% and 41.8% and 34.1%
A549,200 nM,24.6% and 23.1% and 15.6%
A549,20 nM,19.9% and 15.8% and 24.3%
HCC4006,2000 nM,31.7% and 30.1% and 21.7%
NCI-H82,20 nM,36.4% and 30.4% and 36.8%
HCC4006,20 nM,26.5% and 21.3% and 34.5%

# Block 3
# Structure (SMILES): O=C(NCc1ncc(C(F)(F)F)cc1Cl)c1ccc2c(c1)C1(CCS(=O)(=O)CC1)[C@H](C1CC1)N2S(=O)(=O)c1ccc(F)cc1
# Technique: competition with immobilised ligand
# Concentration: 1 µM
target,read-out,remaining binding
"ALK (Homo sapiens, UniProt Q9UM73, L1196M)",cell-free assay,76%
"MAP4K1 (Homo sapiens, UniProt Q92918)",cell-free assay,100%
"MINK1 (Homo sapiens, UniProt Q8N4C8)",cell-free assay,90%
"NEK10 (Homo sapiens, UniProt Q6ZWH5)",cell-free assay,94%
"HASPIN (Homo sapiens, UniProt Q8TF76)",cell-free assay,87%
"Tyrosine-protein kinase ABL1, non-phosphorylated (ABL1, Homo sapiens, UniProt P00519, H396P)",cell-free assay,100%
"GRK4 (Homo sapiens, UniProt P32298)",cell-free assay,100%
"PAK5 (Homo sapiens, UniProt Q9P286)",cell-free assay,100%
"Aurora kinase C (AURKC, Homo sapiens, UniProt Q9UQB9)",cell-free assay,82%
"PTK2 (Homo sapiens, UniProt Q05397)",cell-free assay,100%
"PRKG2 (Homo sapiens, UniProt Q13237)",cell-free assay,77%
"MAP3K12 (Homo sapiens, UniProt Q12852)",cell-free assay,82%
"STK38L (Homo sapiens, UniProt Q9Y2H1)",cell-free assay,91%
"RIOK2 (Homo sapiens, UniProt Q9BVS4)",cell-free assay,77%
"PIP4K2C (Homo sapiens, UniProt Q8TBX8)",cell-free assay,100%
"MAP3K19 (Homo sapiens, UniProt Q56UN5)",cell-free assay,73%
"FLT3 (Homo sapiens, UniProt P36888, D835V/ITD)",cell-free assay,81%
"ITK (Homo sapiens, UniProt Q08881)",cell-free assay,100%
"Myosin-IIIb (MYO3B, Homo sapiens, UniProt Q8WXR4)",binding,74%
"CDK8 (Homo sapiens, UniProt P49336)",cell-free assay,80%

# Block 4
# Organism: Sarcocystis neurona
# Read-out: parasite growth
# Concentration: 10 µM
# Setting: second screen
# Baseline: untreated
SMILES,log2 fold change
CC1(C)S[C@@H]2[C@H](NC(=O)Cc3ccccc3)C(=O)N2[C@H]1C(=O)[O-].[K+],0.51
Nc1ccc2cn[nH]c2c1,0.5
CN(CCO)CC(O)Cn1cnc2c1c(=O)n(C)c(=O)n2C.O=C(O)c1cccnc1 (centres unmarked),0.38
NS(=O)(=O)c1cc2c(cc1C(F)(F)F)NC(Cc1ccccc1)NS2(=O)=O (centres unmarked),0.44
Cc1nccn1CC1CCc2c(c3ccccc3n2C)C1=O.Cl (centres unmarked),0.42
CCN1CC(CCN2CCOCC2)C(c2ccccc2)(c2ccccc2)C1=O.Cl (centres unmarked),0.19
Cc1cccc(CN2CCN(C(c3ccccc3)c3ccc(Cl)cc3)CC2)c1.Cl.Cl (centres unmarked),0.61
COc1ccc(CC(C)NCC(O)c2ccc(O)c(NC=O)c2)cc1.COc1ccc(CC(C)NCC(O)c2ccc(O)c(NC=O)c2)cc1.O.O.O=C(O)/C=C/C(=O)O (centres unmarked),0.47
CC1(C)C[C@@H]1C(=O)N/C(=C\CCCCSC[C@H](N)C(=O)O)C(=O)[O-].[Na+],0.56

# A few entries again (block 4):
SMILES,log2 fold change
Nc1ccc2cn[nH]c2c1,0.5
Cc1cccc(CN2CCN(C(c3ccccc3)c3ccc(Cl)cc3)CC2)c1.Cl.Cl (centres unmarked),0.61
COc1ccc(CC(C)NCC(O)c2ccc(O)c(NC=O)c2)cc1.COc1ccc(CC(C)NCC(O)c2ccc(O)c(NC=O)c2)cc1.O.O.O=C(O)/C=C/C(=O)O (centres unmarked),0.47
CCN1CC(CCN2CCOCC2)C(c2ccccc2)(c2ccccc2)C1=O.Cl (centres unmarked),0.19
Cc1nccn1CC1CCc2c(c3ccccc3n2C)C1=O.Cl (centres unmarked),0.42
CN(CCO)CC(O)Cn1cnc2c1c(=O)n(C)c(=O)n2C.O=C(O)c1cccnc1 (centres unmarked),0.38
NS(=O)(=O)c1cc2c(cc1C(F)(F)F)NC(Cc1ccccc1)NS2(=O)=O (centres unmarked),0.44
